# Published values collected from several papers.
# Every numbered part comes from another study and shows a few of its results, in no order.

# Study 1
# Target: Interferon regulatory factor 7, full length, phosphomimetic (IRF7, Homo sapiens, UniProt Q92985, residues 1-503, S471D/S472D/S475D/S476D/S477D/S483D/S484D/S487D)
# Technique: protein-binding microarray
# Form: double-stranded DNA, one strand shown
# Matrix: in vitro
# Tested at: 2200 nM top
# Notes: 60-bp whole probe
# Added: salmon DNA 0.4 mg/ml
# Reference: random background probes
# Reading: higher = stronger binding
# Shared flanks, not repeated: GCCTAGCAC … GTCTTGATTCGCTTGACGCTGCTG
# Target sequence (chain): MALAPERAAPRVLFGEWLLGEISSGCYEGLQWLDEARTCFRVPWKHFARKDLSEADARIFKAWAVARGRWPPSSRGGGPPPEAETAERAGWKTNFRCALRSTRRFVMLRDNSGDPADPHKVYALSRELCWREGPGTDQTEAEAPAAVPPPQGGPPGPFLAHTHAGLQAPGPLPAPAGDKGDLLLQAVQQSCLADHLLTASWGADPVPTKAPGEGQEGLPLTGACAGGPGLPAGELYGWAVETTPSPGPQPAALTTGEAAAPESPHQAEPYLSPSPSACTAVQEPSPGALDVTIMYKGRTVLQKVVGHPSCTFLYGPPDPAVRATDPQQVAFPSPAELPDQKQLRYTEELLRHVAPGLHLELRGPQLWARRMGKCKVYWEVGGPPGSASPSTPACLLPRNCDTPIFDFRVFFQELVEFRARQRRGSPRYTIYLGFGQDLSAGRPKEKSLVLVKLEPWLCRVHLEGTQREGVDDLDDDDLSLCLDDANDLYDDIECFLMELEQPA
Strand,fitted relative affinity [z-score]
GACGGTATCGCCTATCGGGACGTGCTA,-0.0443
TCACCTCTACCTCCTGGGACTGTGCTA,0.752
TTAGGTGTCGACACTGGGTTAGTGCTA,-0.0875
AAGTGTTTCTCAACCAGTTTGTGCTAG,0.817
TACGATTTCGGGTATCGAGACGTGCTA,2.85
TTAGGTCTCTTTTTCCTTTAGTGCTAG,1.93
GACGATACCGGGTATCGAGACGTGCTA,0.408
TATATTCTATTCCTTTAACAGTGCTAG,2.18
TTAGGGCTGCTACTGCTTTAGTGCTAG,-0.827

# Study 2
# Target: Histone acetyltransferase KAT6A, winged helix 2, GST fusion (KAT6A, Homo sapiens, UniProt Q92794, residues 85-181)
# Technique: protein binding microarray
# Form: double-stranded DNA, one strand shown
# Matrix: in vitro
# Tested at: not given
# Notes: 8-mer, flanks averaged, mean of 2 arrays, mostly near background
# Reference: not given
# Reading: higher = stronger binding
# Residues (chain): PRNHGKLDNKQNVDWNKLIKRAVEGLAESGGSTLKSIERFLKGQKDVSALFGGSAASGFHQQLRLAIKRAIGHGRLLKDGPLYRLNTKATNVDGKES
Strand,E-score
ATCAATCA,0.0518
GATGCACA,0.0542
AGTGTAGG,-0.089
GCCGTAAC,0.0123
GAAGCTAA,-0.00321
AAATCTGG,0.113
AATGAACT,-0.0741
GACAGGTC,-0.0176
ACGCCGGG,0.174

# Study 3
# Target: Prothrombin, mature alpha-thrombin (F2, Homo sapiens, UniProt P00734)
# Technique: aptamer microarray, sandwich
# Form: DNA with 2'F-ANA
# Matrix: in vitro
# Tested at: 200 nM
# Notes: whole 15-mer aptamer, many near background
# Added: Cy3 exosite-II aptamer, 400 nM
# Reading: higher = stronger binding
# Strand: GGTTGGTGTGGTTGG
Modification,mean fluorescence intensity
2'F-ANA at 2 3 4 5 6 9 10 11 12 13 14,51.9 a.u.
2'F-ANA at 2 5 6 7 8 10 12,57 a.u.
2'F-ANA at 4 5 7 9 11 12 13 14,47.4 a.u.
2'F-ANA at 2 4 6 8 9 11 12 13 15,296 a.u.
2'F-ANA at 3 5 6 7 8 9 10 11 13,53.1 a.u.
2'F-ANA at 1 2 3 4 12 14 15,82.9 a.u.
2'F-ANA at 1 2 4 10 11 12,74 a.u.

# Mixed results
Molecule,target,assay,test system,setting,scale,quantity,result
"PhoQ, residues 284 288 289 292 302 303 TTSMTC","PhoP, residues 12 14 15 18 19 QQAYL (Escherichia coli, UniProt P23836)","Sort-seq, refers to: YFP reporter",E. coli,"PhoQ-PhoP variant library, added: 10 µM Mg2+","reference: high Mg2+ state, higher = stronger signaling",fold induction,5.47

# For quick reference, copied from above (study 3):
Modification,mean fluorescence intensity
2'F-ANA at 2 4 6 8 9 11 12 13 15,296 a.u.
